Published values pooled from the literature.
Each line is one published result; not all experiments were run side by side.

CC1(C)C(/C=C/C2=C(Cl)C(=C/C=C3/N(CCCCCC(=O)O)c4ccccc4C3(C)C)/C[N+](C)(C)C2)=[N+](CCCCCC(=O)O)c2ccccc21 — solubility (absorbance; water): ≥ 1000 µM
COc1cc(/C=C/C(=O)C(Cc2ccc(O)c(OC)c2)C(=O)/C=C/c2ccc(O)c(OC)c2)ccc1O — solubility (HPLC; water): < 0.001 mg/mL
CCCS(=O)(=O)N1CCN(Cc2ccc(NC(=O)c3ccc(-c4cc(NC(=O)C5CC5)ccc4OC(F)(F)F)cc3)cc2)CC1 — solubility (aqueous buffer; pH 7): < 0.0016 mg/mL
O=C(C1CCN(c2nnnn2-c2ccccc2)CC1)N1CCCc2ccccc21 — solubility (PBS; 2 h, pH 7.4, 25 °C): 7 µM
CCn1cc(C(=O)NCCNCCO)c(=O)c2cc(OCc3ccc(F)cc3)c(Cl)cc21 — solubility (shake flask; PBS; 24 h, pH 6.5, 25 °C): 15 µM
C[N+](C)(C)CCO.O=C(O)[C@H](O)Cc1ccccc1.O=C([O-])[C@H](O)Cc1ccccc1 — solubility (water): 1480 mg/mL
CC(C)=CCCC(C)(O)C1CCC2(C)C1C(O)CC1C3(C)CCC(OC4OC(COC(=O)CCCCCN5C(=O)C=CC5=O)C(O)C(OC(=O)CCCCCN5C(=O)C=CC5=O)C4O)C(C)(C)C3CCC12C (stereo not drawn) — solubility (water; 24 h, 37 °C): 0.292 mg/mL
CC(=O)O[C@H]1C(=O)[C@]2(C)[C@@H](OC(=O)[C@H](N)CSC3CC(=O)N(CCC(=O)Nc4ccc(-c5ccc(/N=N/c6ccc7c(S(=O)(=O)O)cc(S(=O)(=O)O)c(N)c7c6O)c(C)c5)cc4C)C3=O)C[C@H]3OC[C@@]3(OC(C)=O)[C@H]2[C@H](OC(=O)c2ccccc2)[C@]2(O)C[C@H](OC(=O)[C@H](O)[C@@H](NC(=O)c3ccccc3)c3ccccc3)C(C)=C1C2(C)C (stereo partly drawn) — solubility (water): 5.03 mg/mL
CCc1cnc(NC(=O)c2cc(S(=O)(=O)N3CCOCC3)ccc2N(C)C2CCCC2)s1 — solubility (aqueous buffer; pH 7.4): 23.8 µM
O=C1CCCCC(=O)Nc2ccc3ncc(cc3c2)C(=O)NCc2cccc(c2)CNC(=O)c2cnc3ccc(cc3c2)N1 — solubility (aqueous buffer; pH 7.4): 3 µM
CCOc1cccc(C(=O)Nc2ccc(-c3nc4ccccc4[nH]3)cc2)c1 — solubility (aqueous buffer; pH 6.5): < 5 µM
COc1ccc2ccc(C(=O)Nc3ccc(CN)cc3)c(O)c2c1 — solubility (PBS; pH 7.4): 746 µM
CC12N3Cc4c(OCCCS(=O)(=O)[O-])ccc(OCCCS(=O)(=O)[O-])c4CN1C(=O)N1CN4C(=O)N5Cc6c(OCCCS(=O)(=O)[O-])ccc(OCCCS(=O)(=O)[O-])c6CN6C(=O)N(CN(C3=O)C12C)C4(C)C65C.[Na+].[Na+].[Na+].[Na+] (stereo not drawn) — solubility (NMR; aqueous buffer): 396000 µM
OC(CN1CCC2(CC1)CC(O)c1ccc3ccccc3c1O2)c1ccc(F)c(F)c1 (stereo not drawn) — solubility (absorbance; aqueous buffer; pH 5): > 0.042 mg/mL
CC(=O)N[C@@H](CCC(N)=O)C(=O)N[C@@H](CCC(N)=O)C(=O)N[C@@H](CCCCN)C(=O)N[C@@H](Cc1ccccc1)C(=O)N[C@@H](CCC(N)=O)C(=O)N[C@@H](CC(C)C)C(=O)N[C@@H](CCC(N)=O)C(=O)N[C@@H](Cc1ccccc1)C(=O)N[C@@H](CCC(=O)O)C(=O)N[C@@H](CCC(N)=O)C(=O)N[C@@H](CCC(N)=O)C(N)=O — solubility (water): ≥ 60000 µM
CC1=N[C@H](C)Cc2c(-c3ccc(C)cc3)ccc(O)c21 — solubility (shake flask; PBS; 24 h, pH 6.5, 25 °C): 180 µM
CC(=O)OC1C(=O)C2(C)C(O)CC3OCC3(OC(C)=O)C2C(OC(=O)c2ccccc2)C2(O)CC(OC(=O)C(OC(=O)OC3C=CCCC(C)(C(=O)NCC(=O)O)CC3)C(NC(=O)c3ccccc3)c3ccccc3)C(C)=C1C2(C)C (stereo not drawn) — solubility (PBS): 1 mg/mL
CC(C)CCCC(C)CCCC(C)CCOC1OC[C@@H](O)[C@H](O)[C@H]1O (stereo partly drawn) — solubility (water): 86.5 µM

Repeated from above:
COc1ccc2ccc(C(=O)Nc3ccc(CN)cc3)c(O)c2c1 — solubility (PBS; pH 7.4): 746 µM
